{"data": "Results gathered from unrelated publications", "cell line": "HCT-116", "note": "Protocols differ between the studies behind these lines. ± marks the error that the study gave."}
{"Substance": "CC[C@H](C)[C@H](NC(=O)[C@@H](N)Cc1ccccc1)C(=O)NCC(=O)N[C@H](C(=O)N[C@@H](CC(C)C)C(=O)N[C@H](C(=O)N1CCC[C@H]1C(=O)N[C@@H](CC(C)C)C(=O)N[C@@H](C)C(=O)N[C@@H](CC(C)C)C(=O)NCC(=O)N[C@@H](C)C(=O)N[C@@H](CC(C)C)C(=O)N[C@H](C(=O)N[C@@H](CCCCN)C(=O)N[C@@H](CC(C)C)C(=O)N[C@@H](Cc1ccccc1)C(=O)N[C@@H](CCCCN)C(N)=O)[C@@H](C)O)[C@@H](C)CC)[C@@H](C)O", "test": "cell growth or viability, CCK-8", "setting": "24 h", "measurement": "IC50", "result": "8350 nM"}
{"Substance": "C[C@H](NCCc1ccc(O)cc1)C(=O)c1ccc(OCc2ccccc2)cc1", "test": "cell viability, MTT", "setting": "72 h", "measurement": "IC50", "result": "24700 nM"}
{"Substance": "jasplakinolide B", "test": "cell growth", "measurement": "IC50", "result": "140 nM"}
{"Substance": "Cn1ncnc2c(=O)n(C)c(=O)nc1-2", "test": "cell growth or viability", "setting": "48 h", "measurement": "IC50", "result": "~300 nM"}
{"Substance": "Cc1c(N)nc([C@H](CC(N)=O)NC[C@H](N)C(N)=O)nc1C(=O)N[C@H](C(=O)N[C@H](C)[C@@H](O)[C@H](C)C(=O)N[C@H](C(=O)NCCc1nc(-c2nc(C(=O)NCCCNCCCCN)cs2)cs1)[C@@H](C)O)[C@@H](O[C@@H]1O[C@@H](CO)[C@@H](O)[C@H](O)[C@@H]1O[C@@H]1O[C@H](CO)[C@@H](O)[C@H](OC(N)=O)[C@@H]1O)c1cnc[nH]1", "measurement": "EC50", "result": "300 ± 600 nM"}
{"Substance": "CCCCNNC(=O)c1ccc(Br)cc1", "test": "HDAC activity, HDAC-Glo I/II", "measurement": "IC50", "result": "1800 nM"}
{"Substance": "N.N.[Cl][Pt][Cl]", "test": "cell viability, MTS", "setting": "24 h", "measurement": "IC50", "result": "53800 ± 2100 nM"}
{"Substance": "O=C1[O][Pt]2([NH][C@@H]3CCCC[C@H]3[NH]2)[O]C1=O", "test": "cell viability, MTS", "setting": "72 h", "measurement": "IC50", "result": "1000 nM"}
{"note": "Excerpt of the above:"}
{"Substance": "Cc1c(N)nc([C@H](CC(N)=O)NC[C@H](N)C(N)=O)nc1C(=O)N[C@H](C(=O)N[C@H](C)[C@@H](O)[C@H](C)C(=O)N[C@H](C(=O)NCCc1nc(-c2nc(C(=O)NCCCNCCCCN)cs2)cs1)[C@@H](C)O)[C@@H](O[C@@H]1O[C@@H](CO)[C@@H](O)[C@H](O)[C@@H]1O[C@@H]1O[C@H](CO)[C@@H](O)[C@H](OC(N)=O)[C@@H]1O)c1cnc[nH]1", "measurement": "EC50", "result": "300 ± 600 nM"}
